Measured values from different studies.
Parts stem from different laboratories: compare values within a part only. Values joined by “and” are separate records of one study, mostly repeats; a detail may differ.
UniProt P42336, sequence (whole entry, unmodified, looked up): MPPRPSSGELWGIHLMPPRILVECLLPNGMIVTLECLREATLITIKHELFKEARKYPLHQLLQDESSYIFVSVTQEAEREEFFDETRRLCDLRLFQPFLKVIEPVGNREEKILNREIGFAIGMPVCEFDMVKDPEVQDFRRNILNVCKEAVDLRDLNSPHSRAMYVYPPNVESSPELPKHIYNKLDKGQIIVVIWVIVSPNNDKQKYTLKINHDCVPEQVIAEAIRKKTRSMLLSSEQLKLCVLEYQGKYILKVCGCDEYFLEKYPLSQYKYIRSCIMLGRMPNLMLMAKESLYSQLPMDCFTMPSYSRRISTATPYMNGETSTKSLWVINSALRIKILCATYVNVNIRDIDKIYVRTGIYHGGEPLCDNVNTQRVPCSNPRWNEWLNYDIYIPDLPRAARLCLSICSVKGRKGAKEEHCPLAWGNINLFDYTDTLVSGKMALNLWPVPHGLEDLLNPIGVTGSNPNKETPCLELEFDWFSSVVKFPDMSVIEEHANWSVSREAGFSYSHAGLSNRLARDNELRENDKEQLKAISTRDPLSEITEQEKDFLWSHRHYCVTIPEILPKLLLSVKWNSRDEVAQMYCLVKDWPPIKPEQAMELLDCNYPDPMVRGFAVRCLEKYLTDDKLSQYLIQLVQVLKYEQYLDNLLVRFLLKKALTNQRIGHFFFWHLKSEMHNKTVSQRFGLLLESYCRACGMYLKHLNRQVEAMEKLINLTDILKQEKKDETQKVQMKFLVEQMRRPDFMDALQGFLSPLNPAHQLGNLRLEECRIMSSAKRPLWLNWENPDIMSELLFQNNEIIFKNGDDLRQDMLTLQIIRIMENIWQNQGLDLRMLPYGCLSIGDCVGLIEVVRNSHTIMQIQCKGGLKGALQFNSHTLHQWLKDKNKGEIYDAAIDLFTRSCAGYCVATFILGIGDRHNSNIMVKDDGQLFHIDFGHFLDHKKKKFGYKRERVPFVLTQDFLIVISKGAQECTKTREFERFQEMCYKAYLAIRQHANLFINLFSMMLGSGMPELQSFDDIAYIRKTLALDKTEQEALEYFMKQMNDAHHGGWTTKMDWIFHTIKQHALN
UniProt Q9H2X6, sequence (whole entry, looked up): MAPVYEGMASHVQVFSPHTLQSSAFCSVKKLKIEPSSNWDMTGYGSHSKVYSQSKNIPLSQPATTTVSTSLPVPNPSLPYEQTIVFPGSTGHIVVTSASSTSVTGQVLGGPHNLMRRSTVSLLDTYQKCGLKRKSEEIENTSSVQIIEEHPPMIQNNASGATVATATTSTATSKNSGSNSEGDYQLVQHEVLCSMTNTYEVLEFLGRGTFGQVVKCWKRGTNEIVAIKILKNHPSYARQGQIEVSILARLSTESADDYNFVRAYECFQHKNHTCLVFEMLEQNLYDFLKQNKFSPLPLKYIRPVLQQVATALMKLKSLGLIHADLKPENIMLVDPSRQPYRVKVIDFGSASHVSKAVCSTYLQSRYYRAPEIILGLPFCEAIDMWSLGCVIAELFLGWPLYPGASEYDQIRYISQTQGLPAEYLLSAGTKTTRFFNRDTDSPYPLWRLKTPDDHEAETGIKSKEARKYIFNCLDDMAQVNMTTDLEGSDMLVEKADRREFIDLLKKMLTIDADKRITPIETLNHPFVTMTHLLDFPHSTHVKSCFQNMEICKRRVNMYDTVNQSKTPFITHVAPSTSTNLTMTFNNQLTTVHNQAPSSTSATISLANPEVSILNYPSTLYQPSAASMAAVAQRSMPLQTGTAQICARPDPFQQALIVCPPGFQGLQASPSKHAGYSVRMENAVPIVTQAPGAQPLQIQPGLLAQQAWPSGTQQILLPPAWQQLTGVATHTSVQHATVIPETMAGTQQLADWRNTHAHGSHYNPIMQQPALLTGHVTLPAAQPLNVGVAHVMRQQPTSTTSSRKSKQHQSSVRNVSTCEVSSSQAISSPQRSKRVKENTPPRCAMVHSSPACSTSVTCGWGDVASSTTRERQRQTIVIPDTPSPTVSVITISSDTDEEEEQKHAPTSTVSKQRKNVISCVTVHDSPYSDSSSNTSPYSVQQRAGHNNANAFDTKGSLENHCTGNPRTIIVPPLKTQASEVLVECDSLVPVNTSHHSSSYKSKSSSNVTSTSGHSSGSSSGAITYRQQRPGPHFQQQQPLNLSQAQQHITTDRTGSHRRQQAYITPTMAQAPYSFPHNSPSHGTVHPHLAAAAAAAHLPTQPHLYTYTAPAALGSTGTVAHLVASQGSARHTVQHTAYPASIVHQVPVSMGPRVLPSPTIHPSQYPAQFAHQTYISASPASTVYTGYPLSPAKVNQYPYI
UniProt Q9HAZ1, sequence (whole entry, looked up): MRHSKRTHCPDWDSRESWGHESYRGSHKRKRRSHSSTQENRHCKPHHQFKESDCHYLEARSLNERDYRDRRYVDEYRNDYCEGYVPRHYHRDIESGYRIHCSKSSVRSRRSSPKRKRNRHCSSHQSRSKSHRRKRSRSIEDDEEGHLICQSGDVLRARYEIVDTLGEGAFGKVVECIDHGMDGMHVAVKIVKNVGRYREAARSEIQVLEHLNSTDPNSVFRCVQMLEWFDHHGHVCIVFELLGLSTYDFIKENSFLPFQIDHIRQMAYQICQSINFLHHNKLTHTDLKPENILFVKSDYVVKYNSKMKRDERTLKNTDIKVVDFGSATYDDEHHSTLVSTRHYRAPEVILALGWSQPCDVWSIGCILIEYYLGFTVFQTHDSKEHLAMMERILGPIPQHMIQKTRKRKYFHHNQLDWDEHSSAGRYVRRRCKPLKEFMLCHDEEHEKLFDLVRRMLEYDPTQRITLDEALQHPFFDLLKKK
UniProt O75582, sequence (whole entry, looked up): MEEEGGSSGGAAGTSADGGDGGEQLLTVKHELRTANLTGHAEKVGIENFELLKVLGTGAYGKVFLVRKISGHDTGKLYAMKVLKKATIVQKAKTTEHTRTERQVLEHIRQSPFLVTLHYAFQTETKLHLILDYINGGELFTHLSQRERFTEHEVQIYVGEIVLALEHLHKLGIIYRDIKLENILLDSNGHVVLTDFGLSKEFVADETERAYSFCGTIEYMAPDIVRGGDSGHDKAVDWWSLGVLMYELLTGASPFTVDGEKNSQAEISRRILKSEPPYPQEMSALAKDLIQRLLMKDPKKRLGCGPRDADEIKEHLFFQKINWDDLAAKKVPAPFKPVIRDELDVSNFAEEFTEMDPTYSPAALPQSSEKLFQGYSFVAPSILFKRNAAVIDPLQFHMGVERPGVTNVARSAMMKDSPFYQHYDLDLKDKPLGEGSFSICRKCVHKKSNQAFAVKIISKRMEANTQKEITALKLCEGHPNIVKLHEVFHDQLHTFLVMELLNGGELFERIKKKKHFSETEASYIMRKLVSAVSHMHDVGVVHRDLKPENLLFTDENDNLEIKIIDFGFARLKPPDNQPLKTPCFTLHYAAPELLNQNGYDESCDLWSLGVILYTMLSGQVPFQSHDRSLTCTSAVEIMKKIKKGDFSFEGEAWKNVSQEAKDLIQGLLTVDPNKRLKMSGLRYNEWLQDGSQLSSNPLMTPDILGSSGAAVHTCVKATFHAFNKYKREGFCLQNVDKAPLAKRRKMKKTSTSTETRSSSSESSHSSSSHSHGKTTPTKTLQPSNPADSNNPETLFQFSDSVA
UniProt Q9HBH9, sequence (whole entry, looked up): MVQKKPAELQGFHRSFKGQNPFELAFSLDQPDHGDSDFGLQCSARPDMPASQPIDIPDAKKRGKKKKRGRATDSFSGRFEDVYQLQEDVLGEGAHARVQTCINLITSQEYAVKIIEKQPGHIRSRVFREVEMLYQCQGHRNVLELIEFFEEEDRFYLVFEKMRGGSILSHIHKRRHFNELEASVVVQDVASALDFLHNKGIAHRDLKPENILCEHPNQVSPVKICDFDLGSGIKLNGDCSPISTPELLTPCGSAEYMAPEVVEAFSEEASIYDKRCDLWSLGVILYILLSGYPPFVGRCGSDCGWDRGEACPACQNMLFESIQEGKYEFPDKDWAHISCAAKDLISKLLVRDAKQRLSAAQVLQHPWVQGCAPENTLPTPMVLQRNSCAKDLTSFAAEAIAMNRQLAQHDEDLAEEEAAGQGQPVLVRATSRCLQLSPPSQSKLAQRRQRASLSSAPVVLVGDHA
UniProt Q00526, sequence (whole entry, looked up): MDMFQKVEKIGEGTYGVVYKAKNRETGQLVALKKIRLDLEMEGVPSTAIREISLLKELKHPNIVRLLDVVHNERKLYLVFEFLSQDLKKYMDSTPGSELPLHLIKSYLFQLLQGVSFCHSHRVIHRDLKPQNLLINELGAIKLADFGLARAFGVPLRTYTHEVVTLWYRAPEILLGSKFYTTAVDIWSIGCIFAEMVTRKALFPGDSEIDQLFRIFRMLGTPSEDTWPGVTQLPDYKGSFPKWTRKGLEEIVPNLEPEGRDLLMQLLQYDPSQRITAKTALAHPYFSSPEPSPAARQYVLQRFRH

Study 1
Target: Serine/threonine-protein kinase PAK 5 (PAK5, Homo sapiens, UniProt Q9P286)
UniProt Q9P286, sequence (whole entry, looked up): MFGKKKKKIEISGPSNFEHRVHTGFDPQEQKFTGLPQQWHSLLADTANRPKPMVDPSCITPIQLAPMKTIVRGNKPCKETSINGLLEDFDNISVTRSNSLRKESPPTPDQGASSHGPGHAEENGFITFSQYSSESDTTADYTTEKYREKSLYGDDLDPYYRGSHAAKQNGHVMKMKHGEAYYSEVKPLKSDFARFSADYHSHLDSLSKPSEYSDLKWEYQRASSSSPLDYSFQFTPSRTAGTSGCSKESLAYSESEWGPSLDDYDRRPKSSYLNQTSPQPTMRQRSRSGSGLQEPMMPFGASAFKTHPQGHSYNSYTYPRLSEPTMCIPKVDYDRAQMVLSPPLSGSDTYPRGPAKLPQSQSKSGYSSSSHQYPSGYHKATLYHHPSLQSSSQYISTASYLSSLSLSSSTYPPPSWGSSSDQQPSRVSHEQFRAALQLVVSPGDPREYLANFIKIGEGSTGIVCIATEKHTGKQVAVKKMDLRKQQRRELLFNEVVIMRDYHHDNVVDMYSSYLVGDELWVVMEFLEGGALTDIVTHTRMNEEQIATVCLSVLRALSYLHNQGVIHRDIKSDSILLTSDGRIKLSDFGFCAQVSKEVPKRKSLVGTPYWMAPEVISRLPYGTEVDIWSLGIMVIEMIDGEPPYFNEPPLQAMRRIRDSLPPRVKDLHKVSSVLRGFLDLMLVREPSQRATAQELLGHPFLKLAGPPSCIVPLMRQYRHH
Observed: enzyme activity
Mode: inhibitor
Concentration: 0.5 µM
Reference: control
| SMILES | remaining activity [%] |
| --- | --- |
| CC(C)N(CCC(=O)c1ccc2ccccc2c1)Cc1ccccc1 | 98.5 |
| Clc1ccc(Nc2nnc(Cc3ccncc3)c3ccccc23)cc1 | 97.1 |
| O=C1NC(=O)/C(=C/c2ccc3c(c2)OC(F)(F)O3)S1 | 93 |
| CCCCc1c(-c2ccc(O)cc2)[nH]c2nccnc12 | 82.9 |
| COc1cc2c(Nc3ccc(Br)cc3F)ncnc2cc1OCC1CCN(C)CC1 | 93.5 |
| NC(=O)c1cccc(-c2cc(Nc3ccc(OC(F)(F)F)cc3)ncn2)c1 | 88.1 |
| N#C/C(=C(/N)SC1C=CC=CC1)c1cccc(C(O)c2ccncc2)c1 (stereo not shown) | 100 |
| NC(=O)c1ccc(-c2nc(-c3ccc4c(c3)OCCO4)c(-c3ccccn3)[nH]2)cc1 | 98.8 |
| O=C(O)/C=C/c1cc(Br)c(Br)c(Br)c1Br | 90.6 |
| O=C(c1ccccc1)c1ccc(N2CCOCC2)cc1O | 99.2 |
| COc1cc2c(N3CCN(C(=O)Nc4ccc(OC(C)C)cc4)CC3)ncnc2cc1OCCCN1CCCCC1 | 87.5 |
| CNc1cc2c(Nc3cccc(Br)c3)ncnc2cn1 | 90.8 |
| FC(F)(F)c1ccc(/C=C/c2nc(COc3ccc(CCCCn4ccnn4)cc3)co2)cc1 | 89.4 |
| C[C@@H](N)[C@H]1CC[C@H](C(=O)Nc2ccncc2)CC1 | 85.7 |
| O=Nc1c(-c2c(O)[nH]c3ccccc23)[nH]c2ccccc12 | 89.3 |
| CCN(CC)CCCCN1c2ccccc2Oc2ccc(Cl)cc21 | 116 |
| Nc1nc(Nc2ccc(S(N)(=O)=O)cc2)nn1C(=S)Nc1c(F)cccc1F | 43.8 |
| N#CC(c1ccnc(NCCc2cccnc2)n1)c1nc2ccccc2s1 (stereo not shown) | 98.9 |
| CC(C)n1cnc2c(Nc3cccc(Cl)c3)nc(NCCO)nc21 | 80.4 |
| O=C1c2ccccc2-c2nc3nnnn3nc21 | 93.4 |
| O=c1c(-c2ccc(F)cc2)c(-c2ccncc2)[nH]n1-c1ccc(Cl)cc1 | 86.3 |
| c1cc(-c2cnn3cc(-c4ccc(OCCN5CCCCC5)cc4)cnc23)ccn1 | 93.2 |
| CC(C)(C)c1nc2c3cc[nH]c(=O)c3c3cc(F)ccc3c2[nH]1 | 90.5 |

Study 2
Cell line: A-375
Concentration: 100 µM
Time: 36 h
| Structure (SMILES) | viability |
| --- | --- |
| O=c1cc[nH]c(=S)[nH]1 | 107% |
| CC(C)(O/N=C(\C(=O)N[C@@H]1C(=O)N2C(C(=O)[O-])=C(C[n+]3ccccc3)CS[C@H]12)c1csc(N)n1)C(=O)O | 112% |
| CO/N=C1\C[C@]2(C[C@@H]3C[C@@H](C/C=C(\C)C[C@@H](C)/C=C/C=C4\CO[C@@H]5[C@H](O)C(C)=C[C@@H](C(=O)O3)[C@]45O)O2)O[C@H](/C(C)=C/C(C)C)[C@H]1C | 3.05% |
| C[C@]12CC[C@H](O)CC1=CC[C@@H]1[C@@H]2CC[C@]2(C)C(c3cccnc3)=CC[C@@H]12 | 63.8% |
| COc1ccc(C[C@@H]2c3cc(OC)c(OC)cc3CC[N@+]2(C)CCC(=O)OCCCCCOC(=O)CC[N@@+]2(C)CCc3cc(OC)c(OC)cc3[C@H]2Cc2ccc(OC)c(OC)c2)cc1OC | 43.4% |
| CCn1cc(C(=O)O)c(=O)c2cnc(N3CCNCC3)nc21 | 129% |
| COc1cc2nccc(Oc3ccc(NC(=O)C4(C(=O)Nc5ccc(F)cc5)CC4)cc3)c2cc1OC | 14.9% and 19.7% |
| CCn1c(=O)c2c(nc(/C=C/c3ccc(OC)c(OC)c3)n2C)n(CC)c1=O | 98.5% |
| CCOC(=O)[C@H](CCc1ccccc1)N[C@H]1CCc2ccccc2N(CC(=O)O)C1=O | 98% |
| CCC(=O)OCC(=O)[C@@]1(OC(=O)CC)[C@@H](C)C[C@H]2[C@@H]3CCC4=CC(=O)C=C[C@]4(C)[C@@]3(F)[C@@H](O)C[C@@]21C | 62.4% |
| CC(=O)Oc1cccc2c1C(=O)c1c(OC(C)=O)cc(C(=O)O)cc1C2=O | 32.1% |
| CC1(C)O[C@@H]2C[C@H]3[C@@H]4CCC5=CC(=O)C=C[C@]5(C)[C@H]4[C@@H](O)C[C@]3(C)[C@]2(C(=O)CO)O1 | 108% |
| COc1cc2nc(N3CCN(C(=O)C4COc5ccccc5O4)CC3)nc(N)c2cc1OC (stereo not shown) | 0.649% |

Study 3
SMILES: C=CC(=O)N1CCC([C@@H]2CCNc3c(C(N)=O)c(-c4ccc(Oc5ccccc5)cc4)nn32)CC1
Concentration: 1 µM
| target | assay | inhibition |
| --- | --- | --- |
| EPHA6 (Homo sapiens, UniProt Q9UF33) | cell-free assay | 3% |
| SIK1 (Homo sapiens, UniProt P57059) | enzyme activity, inhibitor | 0% |
| HIPK2 (Homo sapiens, UniProt Q9H2X6) | enzyme activity, inhibitor | 0% |
| PRKAA2 (Homo sapiens, UniProt P54646) | cell-free assay | 0% |
| Ribosomal protein S6 kinase alpha-5, N-terminal kinase domain (RPS6KA5, Homo sapiens, UniProt O75582) | inhibitor | 7% |
| PIK3CA (Homo sapiens, UniProt P42336, M1043I) | enzyme activity, inhibitor | 0% |
| EGFR (Homo sapiens, UniProt P00533, del752-759) | cell-free assay | 16% |
| CIT (Homo sapiens, UniProt O14578) | enzyme activity, inhibitor | 14% |
| MAPK6 (Homo sapiens, UniProt Q16659) | enzyme activity, inhibitor | 4% |
| EGFR (Homo sapiens, UniProt P00533, del747-750/T751S) | cell-free assay | 75% |
| MARK3 (Homo sapiens, UniProt P27448) | enzyme activity, inhibitor | 0% |
| PAK5 (Homo sapiens, UniProt Q9P286) | enzyme activity, inhibitor | 15% |

Study 4
Compound: COc1ccc2c(c1)O[C@H](c1ccc(OC)c(OC)c1)C[C@@H]2NC(=O)C1(c2ccc3c(c2)OC(F)(F)O3)CC1
Observed: cell-free assay
Technique: competition with immobilised ligand
Concentration: 1 µM
| target | remaining binding [%] |
| --- | --- |
| PIK3CG (Homo sapiens, UniProt P48736) | 74 |
| CDC42BPA (Homo sapiens, UniProt Q5VT25) | 100 |
| COQ8B (Homo sapiens, UniProt Q96D53) | 63 |
| CDK3 (Homo sapiens, UniProt Q00526) | 100 |
| SRPK2 (Homo sapiens, UniProt P78362) | 100 |
| CILK1 (Homo sapiens, UniProt Q9UPZ9) | 80 |
| WNK4 (Homo sapiens, UniProt Q96J92) | 83 |
| MET (Homo sapiens, UniProt P08581, Y1235D) | 100 |
| CLK4 (Homo sapiens, UniProt Q9HAZ1) | 92 |
| WNK1 (Homo sapiens, UniProt Q9H4A3) | 100 |
| PRKCI (Homo sapiens, UniProt P41743) | 89 |
| MKNK2 (Homo sapiens, UniProt Q9HBH9) | 100 |
| MAPK4 (Homo sapiens, UniProt P31152) | 100 |
| PIK3CA (Homo sapiens, UniProt P42336, E545K) | 91 |
| NEK9 (Homo sapiens, UniProt Q8TD19) | 100 |
| CDKL5 (Homo sapiens, UniProt O76039) | 100 |

Some of these lines once more (study 2):
| Structure (SMILES) | viability |
| --- | --- |
| COc1ccc(C[C@@H]2c3cc(OC)c(OC)cc3CC[N@+]2(C)CCC(=O)OCCCCCOC(=O)CC[N@@+]2(C)CCc3cc(OC)c(OC)cc3[C@H]2Cc2ccc(OC)c(OC)c2)cc1OC | 43.4% |
| CCn1cc(C(=O)O)c(=O)c2cnc(N3CCNCC3)nc21 | 129% |
| COc1cc2nccc(Oc3ccc(NC(=O)C4(C(=O)Nc5ccc(F)cc5)CC4)cc3)c2cc1OC | 14.9% and 19.7% |
| CCn1c(=O)c2c(nc(/C=C/c3ccc(OC)c(OC)c3)n2C)n(CC)c1=O | 98.5% |
| CCOC(=O)[C@H](CCc1ccccc1)N[C@H]1CCc2ccccc2N(CC(=O)O)C1=O | 98% |
| CCC(=O)OCC(=O)[C@@]1(OC(=O)CC)[C@@H](C)C[C@H]2[C@@H]3CCC4=CC(=O)C=C[C@]4(C)[C@@]3(F)[C@@H](O)C[C@@]21C | 62.4% |
| CC(=O)Oc1cccc2c1C(=O)c1c(OC(C)=O)cc(C(=O)O)cc1C2=O | 32.1% |
| CC1(C)O[C@@H]2C[C@H]3[C@@H]4CCC5=CC(=O)C=C[C@]5(C)[C@H]4[C@@H](O)C[C@]3(C)[C@]2(C(=O)CO)O1 | 108% |
